# Experimental data from different studies.
# Values joined by “and” are separate records of one study, mostly repeats; a detail may differ. ± marks the error that the study gave.
SMILES,assay,test system,conditions,endpoint,value
COc1ccc2c(c1)CN(C(=O)CCN1CCC(Cc3ccccc3)CC1)CC[S@@+]2[O-],,healthy male volunteers,"intravenous, 0.2 mg/kg",plasma concentration,481 ng/mL
OB1c2sccc2C=NN1Cc1ccccc1,HPLC,human plasma,"400 µM, 9 h, 37 °C",plasma stability,stable
COc1ccc2cc3[n+](cc2c1OCCCOC(=O)c1cscn1)CCc1cc2c(cc1-3)OCO2,,hyperlipidemic hamster,"dose not given, 3 weeks",plasma AST reduction,40.5%
CN1CCN(C(=S)N/N=C/c2ccccc2O)CC1,,plasma,"intravenous, 30 mg/kg, 5 min",plasma concentration,8420 ± 721 ng/mL
CC(=O)N[C@H](CC(=O)O)C(=O)N[C@H](Cc1c[nH]c2ccccc12)C(=O)N[C@H](Cc1ccccc1)C(=O)N[C@H](CCCCN)C(=O)N[C@H](C)C(=O)N[C@H](Cc1ccccc1)C(=O)N[C@H](Cc1ccc(O)cc1)C(=O)N[C@H](CC(=O)O)C(=O)N[C@H](CCCCN)C(=O)N[C@@H](C(=O)N[C@H](C)C(=O)N[C@H](CCC(=O)O)C(=O)N[C@H](CCCCN)C(=O)N[C@H](Cc1ccccc1)C(=O)N[C@H](CCCCN)C(=O)N[C@H](CCC(=O)O)C(=O)N[C@H](C)C(=O)N[C@H](Cc1ccccc1)C(N)=O)C(C)C,,"human, plasma","oral, 500 mg daily, 2 h post-dose, day 1",plasma concentration,222 ng/mL
COc1ccc2c(c1)CN(C(=O)CCN1CCC(Cc3ccccc3)CC1)CCS2,,"paroxysmal atrial fibrillation patients, plasma","oral, 540 mg, 10 min",plasma concentration,75.1 ± 37.9 ng/mL
Cc1cccc(Cn2ncc3c4cc(F)c(CN(C)C)cc4n(C)c3c2=O)n1,,"Dutch-belted rabbit, plasma","intravitreal, 100 µM vitreous, 7.00 days",plasma concentration,2.19 ng/mL
C[C@@H](CO)NC(=O)c1cc(-c2ccc(Cl)cc2)nn(-c2cnn(C)c2)c1=O,,rat plasma,"up to 2 h, 37 °C",plasma stability,stable
C=C[C@]1(C)C[C@@H](OC(=O)CSc2ccc(NC(=O)c3ccco3)cc2)[C@]2(C)[C@H](C)CC[C@]3(CCC(=O)[C@H]32)[C@@H](C)[C@@H]1O,,"Mycoplasma gallisepticum-infected chickens, plasma","intramuscular, 40 mg/kg, 12 h",plasma concentration,35.8 ng/mL and 56.5 ng/mL and 6.98 ng/mL and 35.1 ng/mL and 37.2 ng/mL and 36.7 ng/mL and 39.3 ng/mL and 53.1 ng/mL

# Excerpt of the above:
SMILES,assay,test system,conditions,endpoint,value
CN1CCN(C(=S)N/N=C/c2ccccc2O)CC1,,plasma,"intravenous, 30 mg/kg, 5 min",plasma concentration,8420 ± 721 ng/mL
